Experimental data collected from several papers.
Compare with care: the assays were run in different laboratories. “And” joins repeats or separate records; there may be more than shown. ± marks the error that the study gave.

SMILES | assay | system | conditions | scale | measurement | result
c1ccc(Nc2nc(-c3ccccc3)no2)cc1 | CoA-CPM signal reduction, CPM fluorescence thiol | cell-free biochemical | assay interference counter-screen, together with: CoA replacing acetyl-CoA |  | IC50 | > 125 µM
C[C@H]1O[C@@H](O[C@H]2CC[C@@]3(C)[C@@H](CC[C@]4(C)[C@@H]3C=C[C@]35OC[C@@]6(CCC(C)(C)C[C@H]63)[C@@H](O)C[C@]54C)[C@]2(C)CO)[C@H](O)[C@@H](O[C@@H]2O[C@H](CO)[C@@H](O)[C@H](O)[C@H]2O)[C@H]1O | H&E staining | Mus musculus, chronic-plus-binge ethanol, liver | dose not given |  | steatosis area | 0.507% and 0.482% and 0.484% and 0.394% and 0.472% and 0.435%
C=CC(=O)Nc1cc(Nc2nccc(Nc3cc(Cl)c(F)cc3C(C)(C)O)n2)c(OC)cc1N1CC[C@@H](N(C)C)C1 |  | human, EGFR exon20ins NSCLC | dose not given, D770_N771insSVD subtype |  | confirmed objective response rate | 60%
O=C(NNC1CC(=O)N(c2ccc(Br)cc2)C1=O)c1cccnc1 (stereo not shown) | CoA-CPM signal reduction, CPM fluorescence thiol | cell-free biochemical | assay interference counter-screen, together with: CoA replacing acetyl-CoA |  | IC50 | > 125 µM
N#Cc1ccc2c(c1)[C@H]1CCCN(C(=O)c3ccc4[nH]cnc4c3)[C@H]1C2 | item: diastolic blood pressure | human | 20 mg once daily, day 28, adjusted mean | relative to: placebo | change from baseline | 2.2 mmHg
CC(C)NCC(O)c1ccc(O)c(O)c1 (stereo not shown) |  | ventricular cardiomyocytes, C57BL/6 mouse | dose not given, 0.468 s |  | sarcomere length | 1.63 µm
O=S1(=O)C=C(Oc2ccc3ccccc3c2)c2ccccc21 | CoA-CPM signal reduction, CPM fluorescence thiol | cell-free biochemical | assay interference counter-screen, together with: CoA replacing acetyl-CoA |  | IC50 | > 125 µM
C[C@H](Oc1ccc(Br)cc1-c1ccon1)C(=O)O | first response latency | human, tibialis anterior muscle | 800 mg, 30 Hz, single ascending dose |  | difference from placebo | -0.428%
CO[C@H]1CC[C@H](N2C(=O)CNc3ncc(-c4ccc(C(C)(C)O)nc4)nc32)CC1 | flow cytometry | stimulated T cells, human, blood | 30 mg single dose, 5 h, median | relative to: baseline | p4EBP1 change from baseline | -35.9%
CCCCCCCC[C@H](NC(=O)[C@@H]1C[C@H](C)CN1C(=O)/C=C/[C@@H](C)CC)C(=O)N[C@H](C(=O)NC(C)(C)C(=O)N[C@@H](CC(C)C)C(=O)N[C@@H](CC(C)C)C(=O)NC(C)(C)C(=O)NC(C)(C)C(=O)NCCC(=O)N[C@@H](C)CN(C)C)[C@H](O)C(C)C |  | small unilamellar vesicles | concentration not given |  | calcein leakage | 34.8%
c1ccc(-c2n[nH]cc2-c2ccnc3ccccc23)nc1 | kinase binding, competitor, MIB/MS competition, item: CMK2 | Candida albicans cell lysate | 100 nM | relative to: DMSO | log2 fold change | -0.00681
N#Cc1ccc2c(c1)[C@H]1CCCN(C(=O)c3ccc4[nH]cnc4c3)[C@H]1C2 |  | human, plasma | 80 mg, day 15, 360 h | relative to: placebo and baseline | change in fasting insulin | -28.4%
Cn1cc([C@H]2C[C@H]3CSC(N)=N[C@@]3(c3ccc(F)cc3F)CO2)cn1 | item: Aβx-42 | Mus musculus wild-type, brain | subcutaneous, 10 mg/kg, 6 h |  | Aβ42 level | 0.32 ng/g
Cc1cn(-c2ccc3n(c2=O)CCN([C@@H](C)[C@@H]2CC[C@H](c4cc(F)c(Cl)cc4C(F)(F)F)O2)C3=O)cn1 |  | human, CSF | 300 mg single dose, serial CSF sampling | relative to: placebo and baseline | maximum CSF Aβ37 increase | 294%
CN(C)C(=O)Oc1cccc([N+](C)(C)C)c1 | neuromuscular block reversal | rat | dose not given, 19.5 (unit not given), together with: cisatracurium | relative to: T1 twitch | train-of-four ratio | 98.8
Cc1ccc(C(=O)OCc2ccc([C@@H](CN)C(=O)Nc3ccc4cnccc4c3)cc2)c(C)c1 | tonometry | NZW rabbit, magnetic bead-induced ocular hypertension | ocular, 0.02%, 30 h |  | IOP | 33.9 mmHg
Oc1ccc(Br)cc1C=NCCN1CCOCC1 | hydroxyl radical scavenging |  | 200 µM |  | inhibition | 43.5%
COc1ccc(-c2nnc(S)[nH]2)cc1 | CoA-CPM signal reduction, CPM fluorescence thiol | cell-free biochemical | assay interference counter-screen, together with: CoA replacing acetyl-CoA |  | IC50 | 84 ± 5 µM
C[C@@H]1CCC[C@H](n2cnc(-c3cc(Cl)ccc3-n3cc(Cl)nn3)cc2=O)c2cc(ccn2)-c2c(cnn2C(F)F)NC1=O |  | pooled normal human plasma | IC1.5× aPTT, STA-PTT reagent |  | concentration for aPTT prolongation | 250 nM
[Cl][Ru][Cl].c1cnc2c(c1)ccc1cccnc12.c1cnc2c(c1)ccc1cccnc12.c1cnc2c(c1)ccc1cccnc12 |  | air-saturated acetonitrile |  | relative to: Ru(bpy)3(PF6)2 | singlet oxygen quantum yield | 0.53
COc1ccccc1[C@H](Cn1c(=O)n(C(C)(C)C(=O)O)c(=O)c2c(C)c(-c3ncco3)sc21)OC1CCOCC1 | [1-13C]acetate infusion, isotopomer analysis | overweight or obese healthy men, plasma VLDL-TG palmitate | oral, 50 mg single dose, 1 h post-dose, together with: oral fructose |  | fractional hepatic DNL | 5.32 % new palmitate
COC[C@@H](c1ccc(C(F)(F)F)cc1)N1CCN(C2(C)CCN(C(=O)c3c(C)ncnc3C)CC2)C[C@@H]1C |  | HIV-1 infected patients, plasma | 10 mg, week 48, with optimized background regimen | relative to: baseline | change in HIV-1 RNA | -2.39 log10 copies/mL
C#Cc1ccc(C(F)(F)F)cc1C=O | HPLC-MS |  | pH 10.2, together with: 50 mM N-α-acetyl-lysine |  | pseudo-first-order rate constant | 3 h⁻¹
COc1cc2cc(-c3ccc(CC(=O)Nc4cc(C(C)(C)C(F)(F)F)no4)cn3)cnc2cc1OC | RECIST v1.1 | human RET-altered solid tumours | dose not given, phase I |  | best overall response CR | 0%
CC(C)c1c(C(=O)Nc2ccccc2)c(-c2ccccc2)c(-c2ccc(F)cc2)n1CC[C@@H](O)C[C@@H](O)CC(=O)O |  | cynomolgus monkey, female, serum | 40 mg/kg or 25 mg/kg, day 176, 4224 h |  | triglycerides | 47 mg/dL

SMILES | assay | system | conditions | scale | measurement | result
Clc1cccc(Nc2nc(-c3ccncc3)no2)c1 | CoA-CPM signal reduction, CPM fluorescence thiol | cell-free biochemical | assay interference counter-screen, together with: CoA replacing acetyl-CoA |  | IC50 | > 125 µM
NC(=O)c1cnc2[nH]ccc2c1N[C@@H]1[C@@H]2CC3C[C@H]1C[C@@](O)(C3)C2 | flow cytometry | Japanese healthy men, blood | oral, 10 mg twice daily, 72 h after day 7 dose | relative to: baseline | CD8+CD28+ naive T-cell change | -1.87%
C[C@H]1C[C@H]2CSC(N)=N[C@@]2(c2nc(NC(=O)c3ccc(OC(F)F)cn3)cs2)CO1 | item: Aβ1-40 | healthy adults, plasma | 15 mg once daily, day 14 | relative to: placebo | percent change from baseline | -68%
OC(CCN1CCCCC1)(c1ccccc1)C1CC2C=CC1C2 (stereo not shown) | resting-state EEG | healthy elderly humans | oral, 4 mg, eyes open, LS mean | relative to: baseline | change, Delta EEG power, in O2-Pz | 48.8%
CN(C)C(=O)Nc1cccc(-c2ccc(N(C)C)cc2)c1 | qPCR, item: Fasn | high-fat diet-fed mice, liver | dose not given | relative to: vehicle-treated obese mice | relative mRNA level | 1.37 and 1.03 and 0.703 and 1.19 and 0.7
COc1ncc(-c2nc3c(n2C(C)C)[C@H](c2ccc(Cl)cc2)N(c2cc(Cl)cn(C)c2=O)C3=O)c(OC)n1 | International Working Group criteria | human acute myeloid leukemia patients | oral, 20 to 30 mg, response TF, low-dose |  | best overall response | 85.7%
CCCC(CCC)C(=O)Oc1cccc(C(O)CCN)c1.O=CO (stereo not shown) | OCT at 500 µm from nerve head | Abca4-/-Rdh8-/- mice, photic damage | intraperitoneal, 10 mg/kg, 7 days, together with: 10,000 lx light, 30 min |  | ONL thickness | 58.9 µm and 55.4 µm and 59.2 µm and 59.4 µm and 55.8 µm
Cc1cc(F)cc2c(CCC(=O)N[C@@H]3C(=O)NC[C@H]3O)c(-c3ccc(F)cc3)[nH]c12 | proteinuria, item: UACR AUC | APOL1 G2 multicopy mice | dose not given, 0 to 48 h, together with: IFNγ | relative to: vehicle | inhibition | 95%
N#CCC1CCN(c2nc(Nc3ccc(N4CCC(O)CC4)cc3)c3c(=O)[nH]ncc3n2)CC1 | Olink multiplex | human, serum | 20 mg, day 15, unit not given | relative to: baseline | IL-18 level change | -1.02
O=[N+]([O-])c1c(SCCO)ccc2nsnc12 | CoA-CPM signal reduction, CPM fluorescence thiol | cell-free biochemical | assay interference counter-screen, together with: CoA replacing acetyl-CoA |  | IC50 | > 125 µM
Cc1n[nH]c2ccc(-c3cc(OC[C@@H](N)Cc4ccccc4)cnc3-c3ccoc3)cc12 | kinase binding, competitor, MIB/MS competition, item: SSK2 | Candida albicans cell lysate | 10 µM | relative to: DMSO | log2 fold change | -2.24
NCC(=O)Nc1cncc(-c2nn3c(=O)cc(N4CCNCC4)nc3s2)c1 | ADP-induced platelet aggregation, light transmission aggregometry | human, stable CAD on aspirin, ex vivo platelets | subcutaneous, 0.04 mg/kg, 15 min post-dose, median value, together with: ADP 20 µM |  | inhibition | 53.5%
Cn1cc(Nc2nccc(-c3ccc4c(c3)CN(C3COC3)CC[C@H]4NC(=O)c3cn(C(C)(C)C)nn3)n2)cn1 | item: Glutaryl-CoA Degradation | splenic B cells, Mus musculus | 30 mg/kg, together with: IgD activation | relative to: vehicle, direction not given | pathway activation z-score | 1
CN(C)C(=O)c1cc2cnc(Nc3ccc(N4CCNCC4)cn3)nc2n1C1CCCC1 | RNA-seq GSEA, item: HALLMARK_IL2_STAT5_SIGNALING gene set | MB002 tumour | concentration not given | relative to: vehicle, direction not given | enrichment score | 0.29
CC(C)[C@H](C(=O)Nc1ccc(C(=O)NO)cc1)c1ccccc1 | volumetric MRI | human, left IAC schwannoma | dose not given, day 57 |  | tumour volume | 6.8 cm3
CCOC(=O)c1c(NC(=O)CNC(C)C)sc2c1CCCCC2 | EEG | mouse APP J20 | intraperitoneal, 25 mg/kg, first 2 h |  | NREM sleep time | 70.1 ± 2.38%
CSCCNc1nc(SCCC(F)(F)F)nc2c1ncn2[C@@H]1O[C@H](COP(=O)(O)OP(=O)(O)C(Cl)(Cl)P(=O)(O)O)[C@@H](O)[C@H]1O | platelet aggregation, light transmission aggregometry | human patients, platelet-rich plasma | dose not given, 15 min, aggregation above 46%, together with: ADP 5 µM |  | patients with high residual reactivity | 60%
O=C(O)CNC(=O)Cc1ccccc1 |  | ventricular cardiomyocytes, C57BL/6 mouse | dose not given, 0.568 s |  | sarcomere length | 1.63 µm
C[C@@H](NC(=O)N1C(=O)[C@H](Cc2ccnc(N)c2)[C@H]1C(=O)O)C1CCCCC1 |  | human | iv infusion, 1.5 mg/kg/h, 24 h |  | ACT Emax | 128 s
Cl.N[C@@H](Cc1ccc(Oc2nnc(-c3ccccc3)nn2)cc1)C(=O)O | iEDDA cycloaddition | aqueous DMSO 25 % | 37 °C, together with: TCO-OH 7.2 mM |  | kobs | 0.55 s⁻¹
COc1ccc(-c2noc(Nc3ccc(Cl)cc3)n2)cc1 | CoA-CPM signal reduction, CPM fluorescence thiol | cell-free biochemical | assay interference counter-screen, together with: CoA replacing acetyl-CoA |  | IC50 | > 125 µM
N#Cc1ccc2c(-c3ccncc3)c(-c3ccc(F)cc3)nn2c1 | kinase binding, competitor, MIB/MS competition, item: RIM8 | Candida albicans cell lysate | 10 µM | relative to: DMSO | log2 fold change | 0.0776
COc1ccc2c(c1)c(CC(=O)O)c(C)n2C(=O)c1ccc(Cl)cc1 | ABTS | DMSO | concentration not given |  | ABTS radical cation scavenging | 79.64 ± 0.3%
CC(c1cc2ccccc2s1)N(O)C(N)=O (stereo not shown) |  | human blood | 3 µM, together with: A23187 |  | arachidonic acid level | 97900 ± 12900 pg/mL

Excerpt of the above:
SMILES | assay | system | conditions | scale | measurement | result
Cc1cc(F)cc2c(CCC(=O)N[C@@H]3C(=O)NC[C@H]3O)c(-c3ccc(F)cc3)[nH]c12 | proteinuria, item: UACR AUC | APOL1 G2 multicopy mice | dose not given, 0 to 48 h, together with: IFNγ | relative to: vehicle | inhibition | 95%
N#CCC1CCN(c2nc(Nc3ccc(N4CCC(O)CC4)cc3)c3c(=O)[nH]ncc3n2)CC1 | Olink multiplex | human, serum | 20 mg, day 15, unit not given | relative to: baseline | IL-18 level change | -1.02
O=[N+]([O-])c1c(SCCO)ccc2nsnc12 | CoA-CPM signal reduction, CPM fluorescence thiol | cell-free biochemical | assay interference counter-screen, together with: CoA replacing acetyl-CoA |  | IC50 | > 125 µM
Cc1n[nH]c2ccc(-c3cc(OC[C@@H](N)Cc4ccccc4)cnc3-c3ccoc3)cc12 | kinase binding, competitor, MIB/MS competition, item: SSK2 | Candida albicans cell lysate | 10 µM | relative to: DMSO | log2 fold change | -2.24
NCC(=O)Nc1cncc(-c2nn3c(=O)cc(N4CCNCC4)nc3s2)c1 | ADP-induced platelet aggregation, light transmission aggregometry | human, stable CAD on aspirin, ex vivo platelets | subcutaneous, 0.04 mg/kg, 15 min post-dose, median value, together with: ADP 20 µM |  | inhibition | 53.5%
